Assay results of several laboratories.
Every numbered part comes from another study and shows a few of its results, in no order.

Study 1
Target: RING finger protein unkempt homolog, zinc fingers 1-6, GST-SBP tag (UNK, Homo sapiens, UniProt Q9C0B0, residues 30-357)
UniProt Q9C0B0, sequence (30-357, looked up): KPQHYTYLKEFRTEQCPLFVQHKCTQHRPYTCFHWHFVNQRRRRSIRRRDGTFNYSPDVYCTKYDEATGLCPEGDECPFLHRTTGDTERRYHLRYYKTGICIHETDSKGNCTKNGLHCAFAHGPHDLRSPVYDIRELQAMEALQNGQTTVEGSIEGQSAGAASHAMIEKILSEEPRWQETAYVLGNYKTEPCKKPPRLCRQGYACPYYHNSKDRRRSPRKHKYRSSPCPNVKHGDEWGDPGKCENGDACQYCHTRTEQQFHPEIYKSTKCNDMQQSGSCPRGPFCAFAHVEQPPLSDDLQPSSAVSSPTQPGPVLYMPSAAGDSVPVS
Method: RNA Bind-n-Seq
Form: RNA
Medium: in vitro
Tested at: not given
Setting: RNA with constant flanks, human and mouse sites, ends assumed
Relative to: input RNA pool
Direction: higher = stronger binding
| Oligonucleotide | bound/input enrichment [ratio] |
| --- | --- |
| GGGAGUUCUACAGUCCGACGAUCGAAGCUUUUGCAAAGAUCCGAUUGGUCCUGGAAGUGCUCCAGAAACAGCUUCUAGAUUUGCCUCUUGAUGCUGACCUAGAAAUUGGAAAAGUCCCUGGGAUCGUGUUGGCUGAGAUGCUUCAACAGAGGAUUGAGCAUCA | 1.01 |
| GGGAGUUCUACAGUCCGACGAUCACUGAAGAAUCCAAAGCCCCAGUGUACACACAUCUCUUCUGACUCUUCCAGCAAGACGGCCCUGUUUUCCACUAUGCAAGAUCAGACAGAGGUCAGAGGUCAACUCCCAACCCACUUCCUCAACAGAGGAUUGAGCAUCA | 0.135 |
| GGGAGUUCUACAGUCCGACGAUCGAGCUCAUUUGCAAGAUGGCUGCCUGCCCUGAGAAACUGGACCUGAACCUGGCAGCAGCUGUACAUAAGGAGAUGUUCAUUAUGGUGCAAGAGGAGCGGCGUCUACGAAAGGCUCUGUUGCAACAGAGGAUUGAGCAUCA | 0.121 |
| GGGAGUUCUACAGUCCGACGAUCUCAUUGUACUGCAAAAAUCAUCCUCGUUUUAAAUUAGCCACAGUGAUAACUAGUCUGCACUAGUAGAAUCAUUUACCUUUUAAAUUAUCUGCUUUGUCUGAUACCUGAAACACAUCAAAACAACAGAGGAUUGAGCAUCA | 5.95 |
| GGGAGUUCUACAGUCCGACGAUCUUAGCUUAUGGCAACCAAGAAAGCAAGCUCAUCAUACUGGCUAGUGGUGGACCCCAAGCUUUAGUAAAUAUAAUGAGGACCUAUACUUACGAAAAACUACUGUGGACCACAAGCAGAGUGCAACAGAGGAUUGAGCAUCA | 1.23 |
| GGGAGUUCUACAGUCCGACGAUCGAAAGAGUAGAUGGGCCCAAGCACAGCCUCCUCAUGCGUUGAAAUAAUGCCAAAUGCUCUUUAGUAAAAUGCUGAAUUACGGUGUUUUUUUUUUUUUUGCAUCAUUUGUCUUUAAUAUUCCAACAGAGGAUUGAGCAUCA | 0.902 |
| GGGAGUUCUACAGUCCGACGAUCCAGAUCCCUUCCAGCUAAAACCCUUCCCCCUUCCCUCCAUGUGUUUCUCAGUUUCCCGUUUCGUUUGUUGGACUGUUCCACUGCCCCUCCUCCUCACCCUAUCACCCAUGGAUCGUAAUGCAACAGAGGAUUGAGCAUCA | 1.25 |
| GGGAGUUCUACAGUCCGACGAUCAGUGCAGUUUUCCCUGAGAUACCUGUCGUGAAAAGGUUUAUGGGACAGUUUUUCAGAAAGAUGCAUUGACUCUGAAGUUCUCUCUGUUGAGAGCGUCUUCAGUUGGAAGACUUGGAACUGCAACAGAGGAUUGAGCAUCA | 0.102 |

Study 2
Target: Centromere-binding protein 1, full length, His-tagged (CBF1, Saccharomyces cerevisiae, UniProt P17106, residues 1-351)
UniProt P17106, sequence (whole entry, looked up): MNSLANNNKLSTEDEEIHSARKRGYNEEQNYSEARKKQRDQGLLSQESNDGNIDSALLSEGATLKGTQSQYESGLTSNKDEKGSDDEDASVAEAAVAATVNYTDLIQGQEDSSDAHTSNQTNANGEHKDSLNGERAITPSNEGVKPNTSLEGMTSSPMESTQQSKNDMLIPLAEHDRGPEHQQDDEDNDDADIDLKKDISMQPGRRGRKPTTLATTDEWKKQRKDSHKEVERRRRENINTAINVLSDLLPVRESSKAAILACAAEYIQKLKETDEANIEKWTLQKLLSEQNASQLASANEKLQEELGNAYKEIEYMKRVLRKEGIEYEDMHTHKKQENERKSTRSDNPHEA
Method: competition protein-binding microarray
Form: double-stranded DNA, one strand shown
Medium: in vitro
Tested at: 2 µM
Setting: whole 60-bp probe, lowest competitor level
Together with: Pho4 competitor, 0.05 µM
Direction: higher = stronger binding
| Oligonucleotide | fluorescence intensity |
| --- | --- |
| TGCGCAACAACTTGGAGCGTGGGTGTATGTCTAGAAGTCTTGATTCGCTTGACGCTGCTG | 65.1 a.u. |
| TACTCTGTAGTATTCCCCGTGAGGATCCACAGCACCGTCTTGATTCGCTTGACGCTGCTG | 88.5 a.u. |
| TTGCTGAGGAAGAGAGACGTGCTTTTGCCAACTCCAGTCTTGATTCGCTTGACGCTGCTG | 72.4 a.u. |
| AAGGAACAGTTCCATCACGTGTGTTTGTTTGTTGGGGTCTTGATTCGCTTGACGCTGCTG | 2690 a.u. |
| GTCCTAGATCAAAGACACCTGACGATGATAGCCATTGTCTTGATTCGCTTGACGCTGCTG | 186 a.u. |
| AATTTGGTAAGCCATCACGTGGTGAGACAGTTTTCCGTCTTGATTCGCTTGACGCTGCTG | 4440 a.u. |
| CTTCTGTAAATTTGTATGGTGGGTGGACGCGCCCCGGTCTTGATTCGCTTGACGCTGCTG | 105 a.u. |
| TTGTTTGCCTCCGTCGGTGTGACGGAGTTGTGGCCTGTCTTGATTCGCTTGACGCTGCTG | 59 a.u. |

Study 3
Target: Runt-related transcription factor 1, full length (RUNX1, Homo sapiens, UniProt Q01196-8, residues 1-480)
Method: protein-binding microarray
Form: hairpin DNA
Medium: in vitro
Tested at: not given
Setting: whole hairpin DNA, median over replicate spots
Relative to: not given
Direction: higher = stronger binding
| Oligonucleotide | median fluorescence [a.u.] |
| --- | --- |
| CTCAGTTCTGTGCGCTGGACTCCTGTCCAGCGCACAGAACTGAGACACTC (5mC at 31) | 1700 |
| GAGGCCTGTCGCGGTTGGCCTCCTGGCCAACCGCGACAGGCCTCACACTC (5mC at 10 12) | 2660 |
| GAGGCCTGCGGCGGTTGGCCTCCTGGCCAACCGCCGCAGGCCTCACACTC | 2690 |
| GAGGCCTCGTGTGGTTGGCCTCCTGGCCAACCACACGAGGCCTCACACTC (5mC at 36) | 2170 |
| GAGGCCTGTTGGGGTTGGCCTCCTGGCCAACCCCAACAGGCCTCACACTC (5mC at 33) | 1850 |
| GAGGCCTGTTGTGGTTGGCCTCCTGGCCAACCACAACAGGCCTCACACTC (5mC at 31) | 1670 |
| GAGGCCAGTTGTGGTTGGCCTCCTGGCCAACCACAACTGGCCTCACACTC | 3190 |
| GAGGCCGGTCGCGGTTGGCCTCCTGGCCAACCGCGACCGGCCTCACACTC (5mC at 38) | 2900 |

Single results of other studies
| Structure (SMILES) | cell line | method | tested at | relative to | quantity | value |
| --- | --- | --- | --- | --- | --- | --- |
| COc1ccc2c(c1)O[C@@H](c1ccc(OC)c(OC)c1)C[C@H]2NC(=O)C1(c2ccc3c(c2)OC(F)(F)O3)CC1 (single isomer, unassigned) | normal adjacent epithelium organoid sample H | CellTiter-Glo | 1 µM | DMSO | viability | 113% |

Excerpt of the above (study 2):
| Oligonucleotide | fluorescence intensity |
| --- | --- |
| TACTCTGTAGTATTCCCCGTGAGGATCCACAGCACCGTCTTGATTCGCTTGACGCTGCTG | 88.5 a.u. |
| TTGCTGAGGAAGAGAGACGTGCTTTTGCCAACTCCAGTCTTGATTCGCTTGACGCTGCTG | 72.4 a.u. |
